Assay results from different studies.
Compare with care: the assays were run in different laboratories. Numbers after ± are the reported error.

| Substance | test | test system | setting | measurement | result |
| --- | --- | --- | --- | --- | --- |
| CC(=O)N(O)CCCCCNC(=O)CCC(=O)N(O)CCCCCNC(=O)CCC(=O)N(O)CCCCCNC(=S)Nc1ccc(NC(=S)NCCOCCOCCOCCOCCC(=O)N[C@@H](CCC(=O)NCCOCCOCCOCCOCCC(=O)NCCCC[C@@H]2NC(=O)[C@@H](Cc3ccccc3)NC(=O)[C@H](CC(=O)O)NC(=O)CNC(=O)[C@H](CCCNC(=N)N)NC2=O)C(=O)NCCOCCOCCOCCOCCC(=O)NCCCC[C@@H]2NC(=O)[C@@H](Cc3ccccc3)NC(=O)[C@H](CC(=O)O)NC(=O)CNC(=O)[C@H](CCCNC(=N)N)NC2=O)cc1 [zirconium-89 labelled] | microPET imaging | female athymic nude mice, tumour-bearing, tumour | 4 h post-injection, with: unlabelled c(RGDfK) 300 µg per mouse | tumour uptake | 0.39 ± 0.01 %ID/g |
| CCN1C(=CC=CC=CC2=[N+](CCCCCC(=O)NCCCC[C@H](NC(=O)CN3CCN(CC(=O)O)CCN(CC(=O)O)CCN(CC(=O)O)CC3)C(=O)NCC(=O)NCC(=O)N[C@@H](Cc3ccc(O)cc3)C(=O)NCC(=O)N[C@H]3CSSC[C@@H]4NC(=O)CNC(=O)[C@H](C)NC(=O)[C@H](CC(C)C)NC(=O)[C@@H]5CSSC[C@@H](C(=O)NCC(N)=O)NC(=O)[C@H](Cc6ccccc6)NC(=O)CNC(=O)[C@H](CC(N)=O)NC(=O)[C@@H]6CCCN6C(=O)CNC(=O)[C@H](CSSC[C@H](NC(=O)[C@H](CO)NC(=O)[C@H]([C@@H](C)O)NC(=O)[C@@H]6CCCN6C(=O)[C@H](C)NC(=O)[C@H](Cc6c[nH]c7ccccc67)NC(=O)[C@H](CC(=O)O)NC(=O)CNC(=O)[C@H](CCCNC(=N)N)NC(=O)CNC(=O)[C@H](CCC(N)=O)NC(=O)[C@@H]6CCCN6C3=O)C(=O)N[C@@H](CO)C(=O)N[C@@H](CCC(N)=O)C(=O)N[C@@H](CC(=O)O)C(=O)N[C@@H](CO)C(=O)N[C@@H](CC(=O)O)C(=O)N5)NC(=O)[C@H](C(C)C)NC4=O)c3ccc4c(S(=O)(=O)[O-])cc(S(=O)(=O)O)cc4c3C2(C)C)C(C)(C)c2c1ccc1c(S(=O)(=O)O)cc(S(=O)(=O)O)cc21 (single isomer, unassigned) [copper-64 labelled] | – | nude mouse, U-87 MG xenograft, tumour | intravenous, 100 µCi, 0.5 nmol, 4 h | tissue uptake | 5.64 ± 0.83 %ID/g |
| N=C(N)NCCC[C@@H]1NC(=O)[C@H](CCCCNC(=O)CNC(=O)CNC(=O)CNC(=O)CC[C@H](NC(=O)CCOCCOCCOCCOCCNC(=O)c2ccc(NN)nc2)C(=O)NCC(=O)NCC(=O)NCC(=O)NCCCC[C@@H]2NC(=O)[C@@H](Cc3ccccc3)NC(=O)[C@H](CC(=O)O)NC(=O)CNC(=O)[C@H](CCCNC(=N)N)NC2=O)NC(=O)[C@@H](Cc2ccccc2)NC(=O)[C@H](CC(=O)O)NC(=O)CNC1=O [technetium-99m labelled] | γ-counting | female athymic nude mice, U-87 MG xenograft, brain | intravenous, 1 h | tissue uptake | 0.15 ± 0.02 %ID/g |
| COc1cccc2c1C(=O)c1c(O)c3c(c(O)c1C2=O)C[C@@](O)(C(=O)CO)C[C@@H]3O[C@H]1C[C@H](NC(=O)[C@@H]2CCCN2C(=O)CNC(=O)[C@H](CC(C)C)NC(=O)[C@H](C)NC(=O)CP(=O)(O)O)[C@H](O)[C@H](C)O1 | – | mouse, E0771 tumour-bearing, liver | intravenous, 92 µmol/kg | Cmax | 69 µM |
| peginesatide | – | healthy adults | intravenous, 0.1 mg/kg single dose | subjects with adverse events | 31.3% |
| Cc1ccccc1NC(=O)Nc1ccc(CC(=O)N[C@@H](CCCCNC(=O)/C=C/c2cccnc2)C(=O)N[C@@H](CCCC(=O)O)C(=O)NC2(C(=O)NCCOCCOCCOCCOCC(=O)N[C@@H](CCCCNC(=S)Nc3ccc(C[C@H]4CN(CC(=O)O)CCN(CC(=O)O)CCN4CC(=O)O)cc3)C(N)=O)CCCCC2)cc1 [fluorine-18 labelled] | – | mouse C57BL/6 female, B16-F10 tumour, tumour | intravenous, 0.5 h | tissue uptake | 9.04 ± 2.3 %ID/g |
| COc1cccc2c1C(=O)c1c(O)c3c(c(O)c1C2=O)C[C@@](O)(C(=O)CO)C[C@@H]3O[C@H]1C[C@H](NC(=O)[C@H](CC(C)C)NC(=O)[C@H](C)NC(=O)[C@H](CC(C)C)NC(=O)CCNC(=O)CCC(=O)O)[C@H](O)[C@H](C)O1 | – | mouse, E0771 tumour-bearing, heart | intravenous, 92 µmol/kg | Cmax | 35.9 µM |
| N=C(N)NCCC[C@@H]1NC(=O)[C@H](CCCCNC(=O)[C@H](CC(=O)O)NC(=O)[C@H](CC(=O)O)NC(=O)[C@H](CC(=O)O)NC(=O)CC[C@H](NC(=O)CCOCCOCCOCCOCCNC(=O)c2ccc(NN)nc2)C(=O)N[C@@H](CC(=O)O)C(=O)N[C@@H](CC(=O)O)C(=O)N[C@@H](CC(=O)O)C(=O)NCCCC[C@@H]2NC(=O)[C@@H](Cc3ccccc3)NC(=O)[C@H](CC(=O)O)NC(=O)CNC(=O)[C@H](CCCNC(=N)N)NC2=O)NC(=O)[C@@H](Cc2ccccc2)NC(=O)[C@H](CC(=O)O)NC(=O)CNC1=O [technetium-99m labelled] | γ-counting | female athymic nude mice, U-87 MG xenograft, kidneys | intravenous, 2 h | tissue uptake | 15.4 ± 2.3 %ID/g |
| CC[C@H](C)[C@H](NC(=O)[C@H](CCC(N)=O)NC(=O)[C@@H](NC(=O)CNC(=O)[C@H](CSSCCCC(=O)O[C@]1(CC)C(=O)OCc2c1cc1n(c2=O)Cc2cc3ccccc3nc2-1)NC(C)=O)C(C)C)C(=O)N[C@H](C(=O)N[C@@H](Cc1ccc(O)cc1)C(=O)N[C@@H](CCCCN)C(=O)N[C@@H](CCCCN)C(N)=O)C(C)C | fluorescence quenching | nanostructures | 2 min | critical dissociation concentration | ~207 nM |
| melittin | CD titration | POPC 90% POPG 10% vesicles | pH 7.0, 50 °C | free energy of partitioning | -6.7 kcal/mol |

A few entries again:
| Substance | test | test system | setting | measurement | result |
| --- | --- | --- | --- | --- | --- |
| N=C(N)NCCC[C@@H]1NC(=O)[C@H](CCCCNC(=O)CNC(=O)CNC(=O)CNC(=O)CC[C@H](NC(=O)CCOCCOCCOCCOCCNC(=O)c2ccc(NN)nc2)C(=O)NCC(=O)NCC(=O)NCC(=O)NCCCC[C@@H]2NC(=O)[C@@H](Cc3ccccc3)NC(=O)[C@H](CC(=O)O)NC(=O)CNC(=O)[C@H](CCCNC(=N)N)NC2=O)NC(=O)[C@@H](Cc2ccccc2)NC(=O)[C@H](CC(=O)O)NC(=O)CNC1=O [technetium-99m labelled] | γ-counting | female athymic nude mice, U-87 MG xenograft, brain | intravenous, 1 h | tissue uptake | 0.15 ± 0.02 %ID/g |
